Assay results collected from several papers.
Parts stem from different laboratories: compare values within a part only. Positions count from the first letter of the parent shown.

Set 1 — technique: aptamer microarray, sandwich; molecule type: DNA with 2'F-ANA; matrix: in vitro; tested at: 200 nM; with: Cy3 exosite-II aptamer, 400 nM; direction: higher = stronger binding; sequence: GGTTGGTGTGGTTGG
Target: Prothrombin, mature alpha-thrombin (F2, Homo sapiens, UniProt P00734)
Notes: whole 15-mer aptamer, many near background
| Modification | mean fluorescence intensity [a.u.] |
| --- | --- |
| 2'F-ANA at 6 11 12 | 673 |
| 2'F-ANA at 3 5 8 13 14 15 | 73.2 |
| 2'F-ANA at 1 2 5 7 8 11 12 13 15 | 82.9 |
| 2'F-ANA at 2 3 6 8 9 | 849 |
| 2'F-ANA at 1 3 4 8 9 12 | 388 |
| 2'F-ANA at 1 5 7 12 | 114 |
| 2'F-ANA at 1 2 4 5 8 9 15 | 61.5 |
| 2'F-ANA at 1 4 6 7 | 119 |
| 2'F-ANA at 4 7 10 11 13 14 | 60.8 |
| 2'F-ANA at 1 3 4 5 6 8 9 10 11 12 13 14 | 53.5 |
| 2'F-ANA at 1 2 3 5 9 10 12 13 14 | 48.4 |

Set 2 — technique: RNA Bind-n-Seq; molecule type: RNA; matrix: in vitro; tested at: 200 nM; notes: whole 134-nt RNA, ends assumed; with: 150 mM LiCl; reference: input library; direction: higher = stronger binding; all molecules: 7-deaza-guanosine replaces G
Target: Ras GTPase-activating protein-binding protein 1, full length (G3BP1, Homo sapiens, UniProt Q13283)
UniProt Q13283, sequence (whole entry, looked up): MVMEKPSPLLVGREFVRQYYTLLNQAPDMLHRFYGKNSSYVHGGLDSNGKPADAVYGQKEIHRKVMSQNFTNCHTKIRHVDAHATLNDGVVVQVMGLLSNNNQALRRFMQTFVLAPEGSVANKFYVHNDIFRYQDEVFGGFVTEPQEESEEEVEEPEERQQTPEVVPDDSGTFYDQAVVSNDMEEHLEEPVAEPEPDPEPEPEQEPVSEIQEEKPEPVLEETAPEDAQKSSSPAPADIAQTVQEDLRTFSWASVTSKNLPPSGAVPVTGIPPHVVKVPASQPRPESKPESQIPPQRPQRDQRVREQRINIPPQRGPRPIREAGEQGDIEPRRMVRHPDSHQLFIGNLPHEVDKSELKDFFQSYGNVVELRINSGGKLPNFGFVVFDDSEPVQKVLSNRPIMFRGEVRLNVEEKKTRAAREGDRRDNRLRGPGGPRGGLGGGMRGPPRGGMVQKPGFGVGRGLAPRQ
| Sequence | log2 enrichment |
| --- | --- |
| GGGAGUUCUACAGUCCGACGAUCAGUCCUGUGCUACACAUCGUAUGUACCGAAUCGGGGAAAAAGGGGAGGGGAAAGGGGAAAGUAUUAUGUUACGCCGUUCGGAUCUGCACUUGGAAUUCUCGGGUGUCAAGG | 0.268 |
| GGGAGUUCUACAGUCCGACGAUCAAGUCCUGUGCUACACAUCGUAUGUACCGAAUCAAAUUUUUAAACCCAAACCCAAAAAAGUAUUAUGUUACGCCGUUCGGAUCUGCACUUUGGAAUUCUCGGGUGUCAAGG | 1.18 |
| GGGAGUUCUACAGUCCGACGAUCACCAUGCAGGUGGGCAUCUUUGGGAAGUGGGGCAAGGGGGGGAUAGGAAGGGGGGUAACACUUUGGGAACAGGUGGUCCCAGGUCGUUUCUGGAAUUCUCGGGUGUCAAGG | 0.282 |
| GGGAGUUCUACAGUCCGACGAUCUCCUGUGCUACACAUCGUAUGUACCGAAUCAAAUUUUUUUAAACCCCCAAACCCCCAAAAAAGUAUUAUGUUACGCCGUUCGGAUCUGCAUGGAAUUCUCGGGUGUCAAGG | 0.954 |
| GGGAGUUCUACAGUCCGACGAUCCUCAAGUCCUGUGCUACACAUCGUAUGUACCGAAUCGGCCGGGGCCGGCCGGGAAAGUAUUAUGUUACGCCGUUCGGAUCUGCACUUCCAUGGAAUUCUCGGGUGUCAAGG | 0.593 |
| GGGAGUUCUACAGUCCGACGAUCAGUCCUGUGCUACACAUCGUAUGUACCGAAUCGGGUUUGGGAAAAAAAGGGAAAGGGAAAGUAUUAUGUUACGCCGUUCGGAUCUGCACUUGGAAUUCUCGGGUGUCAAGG | -0.986 |
| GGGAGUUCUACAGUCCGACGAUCGUCCUGUGCUACACAUCGUAUGUACCGAAUCGGGGAAAGGGGAAAAAGGGGUUUGGGGAAAGUAUUAUGUUACGCCGUUCGGAUCUGCACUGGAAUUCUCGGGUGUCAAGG | -0.59 |

Set 3 — target: CCNA1, cyclin fold, Cln2 fusion (human); technique: yeast growth competition, sequencing; matrix: yeast; notes: weak parent motif; reference: not given; direction: higher = stronger binding
Parent: DNAH7 docking peptide (human); HELFQRLDFDNDG
| Change | normalised enrichment score |
| --- | --- |
| HELFQRLDFANDG [D10A] | -0.535 |
| HELFQRLDFDNDA [G13A] | -0.0366 |
| HEAFQRLDFDNDG [L3A] | -0.145 |
| HELFQALDFDNDG [R6A] | 0.0157 |
| HELAQRLDFDNDG [F4A] | -0.118 |
| AELFQRLDFDNDG [H1A] | -0.119 |

Other studies, line by line
| Substance | target | assay | test system | conditions | scale | measurement | value |
| --- | --- | --- | --- | --- | --- | --- | --- |
| PhoQ, residues 284 288 289 292 302 303 STVVAA | PhoP, residues 12 14 15 18 19 LWHVM (Escherichia coli, UniProt P23836) | Sort-seq, measured: YFP reporter | E. coli | PhoQ-PhoP variant library, with: 10 µM Mg2+ | reference: high Mg2+ state, higher = stronger signaling | fold induction | 9.94 |

Some of these lines once more (set 2):
| Sequence | log2 enrichment |
| --- | --- |
| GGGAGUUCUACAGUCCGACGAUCAAGUCCUGUGCUACACAUCGUAUGUACCGAAUCAAAUUUUUAAACCCAAACCCAAAAAAGUAUUAUGUUACGCCGUUCGGAUCUGCACUUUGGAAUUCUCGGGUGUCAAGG | 1.18 |
| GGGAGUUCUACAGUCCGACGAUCGUCCUGUGCUACACAUCGUAUGUACCGAAUCGGGGAAAGGGGAAAAAGGGGUUUGGGGAAAGUAUUAUGUUACGCCGUUCGGAUCUGCACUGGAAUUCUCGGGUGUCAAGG | -0.59 |
| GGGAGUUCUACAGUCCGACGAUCAGUCCUGUGCUACACAUCGUAUGUACCGAAUCGGGGAAAAAGGGGAGGGGAAAGGGGAAAGUAUUAUGUUACGCCGUUCGGAUCUGCACUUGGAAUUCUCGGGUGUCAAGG | 0.268 |
| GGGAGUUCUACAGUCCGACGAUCUCCUGUGCUACACAUCGUAUGUACCGAAUCAAAUUUUUUUAAACCCCCAAACCCCCAAAAAAGUAUUAUGUUACGCCGUUCGGAUCUGCAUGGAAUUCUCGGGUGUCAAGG | 0.954 |
